Assay results from different studies.
A part holds a random share of what one study measured.

Sample 1
Target: Histone acetyltransferase KAT6A, winged helix 2, GST fusion (KAT6A, Homo sapiens, UniProt Q92794, residues 85-181)
Method: protein binding microarray
Form: double-stranded DNA, one strand shown
Sample: in vitro
Concentration: not given
Setting: 8-mer, flanks averaged, mean of 2 arrays, mostly near background
Reference: not given
Direction: higher = stronger binding
Target sequence (chain): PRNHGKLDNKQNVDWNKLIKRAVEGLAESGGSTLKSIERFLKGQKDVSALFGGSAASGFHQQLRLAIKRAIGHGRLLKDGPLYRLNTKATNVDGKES
Oligonucleotide | E-score
CGTGCTTA | 0.0717
CTCACGTC | -0.133
ATGACACC | -0.0956
TAAGGTGA | -0.0587
AGTCTGCG | -0.0277
ACCCCGCG | 0.0732
CAAAATTA | 0.218
GGCGCACA | 0.042
TAAAATAA | 0.0639
GCTTTGAC | 0.0976
CGCTGTAA | 0.17
GTCAATCA | -0.229
ATATATTG | -0.178
GTGCCAGA | -0.00873
AGAGTTAT | -0.127
AACACGCT | -0.0414
ACCCACCC | -0.000165
AGATAACC | -0.229

Sample 2
Target: RING finger protein unkempt homolog, zinc fingers 1-6, SBP tag (UNK, Homo sapiens, UniProt Q9C0B0, residues 30-357)
Chain of UniProt Q9C0B0 (30-357, looked up): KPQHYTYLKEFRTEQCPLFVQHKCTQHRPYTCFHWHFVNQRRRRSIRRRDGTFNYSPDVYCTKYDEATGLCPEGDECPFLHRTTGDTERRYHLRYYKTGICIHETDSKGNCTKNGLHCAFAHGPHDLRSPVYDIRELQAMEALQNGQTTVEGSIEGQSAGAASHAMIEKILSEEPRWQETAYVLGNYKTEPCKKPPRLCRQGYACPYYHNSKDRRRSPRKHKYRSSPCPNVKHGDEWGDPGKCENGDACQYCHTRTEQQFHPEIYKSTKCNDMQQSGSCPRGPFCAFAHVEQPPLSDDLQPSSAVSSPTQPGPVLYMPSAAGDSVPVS
Method: RNA Bind-n-Seq
Form: RNA
Sample: in vitro
Concentration: 100 nM
Setting: RNA with constant flanks, vertebrate orthologous sites, ends assumed
Reference: input RNA pool
Direction: higher = stronger binding
Constant ends, left off below: GGGAGUUCUACAGUCCGACGAUC … CAACAGAGGAUUGAGCAUCA
Oligonucleotide | bound/input enrichment
AUUGUAUGUAGAGAAAAAAUUUUCACUAACUACCAUUGUGGAAUUCCCUAGCAAUUUAUUUAGACUUAAUUUUUAAAAUUCAAGCUUACUGUAUUAGGCAUUUUUAGCUCAUAAUUAAAA | 11.7 ratio
UUUGUUUUGCACAUGUGGCAGUGUUUGUAUUGAGGAUCUUCUGAGGAAGAAGGGGUGCUAUAGCAGUGGUGCCUGGGUUCCUGGCCUCCAGUGCCCCCACCACCCCACCUGGCAGCUUUG | 0.408 ratio
UGCCCCCCAAGAAUUCAGGACUGGUUUUACCCAUAUACCAAGUAGAUAUGGGACGAACAAUAGACUUGGGCAACCAAGACCAUGAUCGACUCAAGUUUAACUUAUUUUUAUGAGGACUGU | 0.444 ratio
AGAAAAUUUUAACCAAGAAUCCGAAGGUAGAAAUACAGGACCUUGGUUAUCUUCCUCACUUAGAAAUAGAUGCACACCUUUGUUCUCUAGAAGAAGGAGAGAGGGACGAGAUGAAUCUUC | 0.939 ratio
UUGUCUCGGGAGAGCCGGCCGGGGUUGGCACUCAUCCCACUUGCCCUUUGCUUUAUUUUCCUCGGGGCUGGGGUGAGGGUCGCGGCGCCCACUGAGCCUGAGGCGCGAGCUUGUGUGAUU | 0.359 ratio
AAAUAUACUUCAUGCCAUGGACUCCGUAUCGCACGGAUACUUUGAUAGAAUAUGCUUCUUUAGAGGACUUCCAGAACGGACGCCAGCAGACGACGUACAAACUCCCAAACCGAGUGGAUG | 0.508 ratio
AGCAGCUCAAGGAUUCAGAACUGGUUUUGCAAAUGUCCCAAGCAGAUAUGGAACAAACGCACGUGGUCAGCCCCGACCGUAAUAAACACCAUUAUUUAUUAUACUUAAGGGUAUUGACUU | 0.316 ratio
CUCUAGUGCUUAAGAACCAACCUAAAACCAUUAGAAAAAAAAAAAGUUUACAACUUAAUCUAGUUUACAAAGAAGUCUUGUGCUAGAAUACUUUUUUAAAGUAUUUUUUGAAUACCAUUA | 1.09 ratio

Sample 3
Target: RNA binding protein fox-1 homolog 2, RRM domain, GST-SBP tag (RBFOX2, Homo sapiens, UniProt O43251-10, residues 100-194)
Method: RNA Bind-n-Seq
Form: RNA
Sample: in vitro
Concentration: 365 nM
Setting: natural RNA segment, single round, ends assumed
Reference: no-protein control
Direction: higher = stronger binding
Constant ends, left off below: GGGAGUUCUACAGUCCGACGAUC … UGGAAUUCUCGGGUGCCAA
Oligonucleotide | RBNS enrichment (R)
ACCUCUUGCUGUGUUUGGAUCCCUUGGCCUUGUUUUGUAGAGGUGAAGUACCCCUGGAUCAUGUCCGAGUUUUUGUCUUUCACUGUCUGAAUCAUGUUCCAGCUGCUUGA | 1.34
UUCUGAUUGCCCAGGAGCAGUCAGUAGUGAGGAUACUGAGAAAACUUCCUUCCCAGAGAAAAUGGAUCCUCUAUGUGGGAUUGUAGGAAAGUGACUGGGUGUGCCAAAAA | 0.835
UGUUUUCCCUUUGGUCCCAGGCCCUGGGGGAAAGGAAGGAAGUGCAUGCUUGGGGACUGGUCCCACUGGAUCUCUAUCCUAACGUCCAUGGCCGUCAGCACCCCUCCUUU | 12.7
AACUCACCAAGUGUCAGCCCAGGUAGUGAGAAACUUGCAGUAGACAUGGAGCUGGGCUCUUUUAAAUUUGUUUUGUGAAGUUUCAGCCUCUUAAUGCUUUUGUAUAGGAA | 0.621
CACUUUUAGACAUCUUGUAAUGAAUAGGCCUUGUUGCUACUCUCAAAACAAAUCAAUCGGGAGGGGACCACUGAGAAAGAGGUAACAGUUAUUAAAGGAUGUUUUUGCAA | 1.12
ACGCUGAUGGGCACUGGAGAGGCCAGAAGAGACUCAGAGGAGCGGGCUGCCUUCCGCCUGGGGCUCCCUGUGACCUCUCAGUCCCCUGGCCCGGCCAGCCACCGUCCCCA | 0.413
UGUGUUCACGUGGCCCCCGACUCCUCAGCCACAUCAAGUCUCCUAGACCACUGUGGACUCUAAACUGCACUUGUCUCUCUCAUUUCCUUCAAAUAAUGAUCAAUGCUAUU | 0.513
CGAGCCCUGGGCUUUGAAGGCAGCCUUAGGACAAACUCCUCUGCCUAAGGCAUCAUGCCUCAGCCCCUUGCACUGUAUGUUCCUAUAUGUCUACUUGUAUUGAUCCUUUG | 0.776

Sample 4
Target: Ras GTPase-activating protein-binding protein 1, RRM domain (G3BP1, Homo sapiens, UniProt Q13283)
Chain of UniProt Q13283 (whole entry, looked up): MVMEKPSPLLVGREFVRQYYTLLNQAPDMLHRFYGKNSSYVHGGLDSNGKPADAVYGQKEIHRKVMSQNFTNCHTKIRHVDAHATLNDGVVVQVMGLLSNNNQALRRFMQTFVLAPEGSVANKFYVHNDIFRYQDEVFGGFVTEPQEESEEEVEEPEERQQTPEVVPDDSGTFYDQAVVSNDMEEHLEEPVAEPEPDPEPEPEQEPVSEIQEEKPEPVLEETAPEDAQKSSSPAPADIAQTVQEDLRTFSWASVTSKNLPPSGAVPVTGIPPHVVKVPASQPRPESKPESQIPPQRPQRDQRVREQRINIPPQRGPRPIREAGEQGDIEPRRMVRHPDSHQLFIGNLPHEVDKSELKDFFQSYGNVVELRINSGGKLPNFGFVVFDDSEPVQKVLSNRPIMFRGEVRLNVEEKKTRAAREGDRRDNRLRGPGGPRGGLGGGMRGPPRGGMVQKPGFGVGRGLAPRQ
Method: RNA Bind-n-Seq
Form: RNA
Sample: in vitro
Concentration: 1 µM
Setting: whole 134-nt RNA, ends assumed
Added: 150 mM KCl
Reference: input library
Direction: higher = stronger binding
Constant ends, left off below: GGGAGUUCUACAGUCCGACGAUC … UGGAAUUCUCGGGUGUCAAGG
Oligonucleotide | log2 enrichment
GUCCUGUGCUACACAUCGUAUGUACCGAAUCGGGUUUUUUGGUUUUUUGGGUUUUUUGGAAAGUAUUAUGUUACGCCGUUCGGAUCUGCA | -0.242
UGGGACGUGGAUUUUGUUUAUUUUUUUAGCUCAUUUCCAGGGGUGGGAAUUUUUUUUUAAUAUGUGUCAUGAAUAAAGUUGUUUUUGAAA | 2.36
GCAGGAAGUAAAAACUAAUGGAAAUGCUUCGGAUAGUGGCAGGGGUGGGGGUUGCUAAGGAAAGGGUGGGAUGGGAGUGGGUAAAGAGUU | 1.03
AAGUCCUGUGCUACACAUCGUAUGUACCGAAUCGGAAAAGGAAAAGGGAAAAGGGGAAAGUAUUAUGUUACGCCGUUCGGAUCUGCACUU | -0.17
ACCAUGCAGGUGGGCAUCUUUGGGAAGAAAGGCAAGGGGGGGAUAGGGAGGGGGGUAACACUUUGGGAACAGGUGGUCCCAGGUCGUUUC | -0.356
CCUCAAGUCCUGUGCUACACAUCGUAUGUACCGAAUCGGUUUGGAGGAAAGGAAAGUAUUAUGUUACGCCGUUCGGAUCUGCACUUCCAG | -0.158
UGAAGACACAGCAUCCACCCGAUCUUCAUUCACUGUCCAAGACCUUAAACCUUUUACAGAAUAUGUGUUUAGGAUUCGCUGUAUGAAGGA | 0.0518
UCCUGUGCUACACAUCGUAUGUACCGAAUCGGGUUUUUGGGGUUUUUGGGUUUUUGGGGAAAGUAUUAUGUUACGCCGUUCGGAUCUGCA | 0.137
CCUGUGCUACACAUCGUAUGUACCGAAUCGGGAAAAAGGGAAAAAAAGGGUUUUUUUGGGAAAGUAUUAUGUUACGCCGUUCGGAUCUGC | -0.112
